Assay results gathered from unrelated publications.
Parts stem from different laboratories: compare values within a part only.
UniProt P28147, sequence (whole entry, looked up): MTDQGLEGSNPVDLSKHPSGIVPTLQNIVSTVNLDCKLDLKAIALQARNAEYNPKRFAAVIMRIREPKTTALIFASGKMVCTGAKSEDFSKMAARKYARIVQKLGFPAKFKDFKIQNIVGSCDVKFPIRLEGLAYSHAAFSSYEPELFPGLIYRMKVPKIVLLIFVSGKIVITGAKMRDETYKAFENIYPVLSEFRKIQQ
UniProt P49711, sequence (whole entry, looked up): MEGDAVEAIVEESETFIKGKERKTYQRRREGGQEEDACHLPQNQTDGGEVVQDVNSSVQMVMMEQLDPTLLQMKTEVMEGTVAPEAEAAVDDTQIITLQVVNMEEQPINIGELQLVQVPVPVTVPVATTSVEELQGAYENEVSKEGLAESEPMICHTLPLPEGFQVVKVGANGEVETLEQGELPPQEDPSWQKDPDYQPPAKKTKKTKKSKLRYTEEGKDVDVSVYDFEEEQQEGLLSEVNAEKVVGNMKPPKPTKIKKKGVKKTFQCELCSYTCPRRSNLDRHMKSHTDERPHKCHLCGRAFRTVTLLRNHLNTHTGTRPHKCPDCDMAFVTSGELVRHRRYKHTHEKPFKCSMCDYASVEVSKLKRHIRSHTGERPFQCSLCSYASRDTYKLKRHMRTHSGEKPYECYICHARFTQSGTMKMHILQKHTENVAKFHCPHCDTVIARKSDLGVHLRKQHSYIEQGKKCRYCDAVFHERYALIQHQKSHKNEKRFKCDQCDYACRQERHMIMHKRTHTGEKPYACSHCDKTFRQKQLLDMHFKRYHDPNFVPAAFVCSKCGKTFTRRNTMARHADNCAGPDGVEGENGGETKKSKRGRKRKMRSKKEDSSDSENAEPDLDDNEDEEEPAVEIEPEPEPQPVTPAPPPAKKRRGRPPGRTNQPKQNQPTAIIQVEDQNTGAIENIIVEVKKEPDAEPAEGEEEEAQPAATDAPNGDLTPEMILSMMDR

Sample 1 — action: inhibitor; tested at: 20 µM
Target: Replicase polyprotein 1ab, nsp13 helicase (rep, Severe acute respiratory syndrome coronavirus 2, UniProt P0DTD1)
For `CN1CCN(Cc2ccc(Nc3ncc(Cl)c(Nc4ccccc4S(=O)(=O)N(C)C)n3)cc2)CC1`, the inhibition was -1.49%.
The inhibition of `CCCCCC(C)N` (stereo not drawn) is reported as 4.2%.
`O=C1CN(/N=C/c2ccc([N+](=O)[O-])o2)C(=O)N1` has an inhibition of 4.82%.
`Cc1ccc2c(c1)c1c(n2CCc2ccc(C)nc2)CCN(C)C1` has an inhibition of 48.8%.
The inhibition of `CCn1c(=O)c(-c2ccc(Cl)cc2Cl)cc2cnc(Nc3ccc(N4CCNCC4)c(F)c3)nc21` is reported as -2.73%.
The inhibition of `O=C1Cc2c([nH]c3ccc(Br)cc23)-c2ncccc2N1` is reported as 14.8%.
`CO[C@@H]1[C@@H](OC(N)=O)[C@@H](O)[C@H](Oc2ccc3c(O)c(NC(=O)c4ccc(O)c(CC=C(C)C)c4)c(=O)oc3c2C)OC1(C)C` has an inhibition of 3.6%.
The inhibition of `CCN(CC)S(=O)(=O)c1ccc(C(=O)O)cc1` is reported as 8.64%.
For `CCCCCCCCN[C@@H](C)[C@H](O)c1ccc(SC(C)C)cc1` (racemic), the inhibition was 4.68%.
With `CN(C)c1ccccc1CN1CCCN(Cc2ccccc2N(C)C)C1c1ccncc1` the inhibition was 4.41%.
`Cc1cc(-c2nc(-c3ccc(OC(F)(F)F)cc3)no2)nn1Cc1ccnc(N2CCN(C3CC3)CC2)c1` has an inhibition of 4.14%.
With `CCCN(C/C=C/I)C1CCc2cccc(O)c2C1` (stereo not drawn) the inhibition was -2.77%.
With `CCC[C@H](N[C@@H](C)C(=O)N1[C@H](C(=O)O)C[C@@H]2CCCC[C@@H]21)C(=O)OCC` the inhibition was 10.8%.
For `Cc1ccc2c(c1CCC(=O)O)CC[C@@H](NS(=O)(=O)c1ccc(Cl)cc1)C2`, the inhibition was -0.56%.
`Cn1c(NCCN(CCO)CCCc2ccc([N+](=O)[O-])cc2)cc(=O)n(C)c1=O` has an inhibition of 6.15%.
With `O=C(O)c1cccnc1Nc1cccc(C(F)(F)F)c1` the inhibition was -5.19%.
`CNc1cc(OC)c(C(=O)N[C@@H]2CCN(Cc3ccccc3)[C@@H]2C)cc1Cl` (racemic) gave an inhibition of 9.92%.
`COc1cc(C[C@@H](CO)[C@H](CO)Cc2ccc(O)c(OC)c2)ccc1O` has an inhibition of 1.35%.
The inhibition of `CC(C)(C(=O)c1cccnc1)c1cccnc1` is reported as 3.24%.
The inhibition of `CO[C@@]1(NC(=O)CSCC#N)C(=O)N2C(C(=O)O)=C(CSc3nnnn3C)CS[C@@H]21` is reported as -1.73%.
`O=C(NCC1CCOCC1)c1cnc(Nc2ccc(Cl)cc2Cl)nc1C(F)(F)F` has an inhibition of -2.65%.
With `Cc1cc2nc3c(=O)[nH]c(=O)nc-3n(C[C@H](O)[C@H](O)[C@H](O)COP(=O)(O)O)c2cc1C` the inhibition was -0.38%.
With `Cc1cccc(Nc2nc(-c3ccncc3)cs2)c1` the inhibition was 10.1%.
For `COc1c(C)cnc(Cn2cnc3c(Cl)nc(N)nc32)c1C`, the inhibition was -0.81%.
`CNCCCN1c2ccccc2CCc2ccccc21` gave an inhibition of 4.46%.

Sample 2 — effect on: enzyme activity; action: inhibitor; tested at: 20 µM; notes: hit confirmation
Target: Replicase polyprotein 1ab, main protease (rep, Severe acute respiratory syndrome coronavirus 2, UniProt P0DTD1)
The inhibition of `CCCCCCCCCCCCCCCC[N+](C)(C)Cc1ccccc1` is reported as 28.5%.
The inhibition of `C=C(CC)C(=O)c1ccc(OCC(=O)O)c(Cl)c1Cl` is reported as -8.3%.
`Nc1c[n+](N2CCOCC2)no1` has an inhibition of 60.4%.

Sample 3 — cell line: HEK-293T/ACE2; tested at: concentration not given; time: 16 (unit not given); reference: vehicle
For `CCN(CC)C(=O)[C@@]1(c2ccccc2)C[C@H]1CN`, the viability was 104%.
`O=[N+]([O-])O[C@H]1CO[C@H]2[C@@H]1OC[C@H]2O[N+](=O)[O-]` gave a viability of 101%.
`Nc1nc(F)nc2c1ncn2[C@@H]1O[C@H](CO)[C@@H](O)[C@@H]1O` gave a viability of 100%.

Sample 4 — method: universal PBM; molecule type: double-stranded DNA, one strand shown; matrix: in vitro; tested at: not given; direction: higher = stronger binding
Target: Sal-like protein 4, full length isoform B (SALL4, Homo sapiens, UniProt Q9UJQ4-2, residues 1-616)
Notes: 8-mer, flanks averaged, mean of replicates
`CCCCGGTA` has an E-score of -0.29.
`ATCGGGAC` gave an E-score of -0.201.
With `CACGTTTA` the E-score was 0.261.
`CCCGTAAA` has an E-score of 0.0627.
`CGTAGTCC` has an E-score of -0.227.
For `ATGGCAAT`, the E-score was 0.127.
The E-score of `GCGGTCCC` is reported as -0.357.
`ACGTTCTC` has an E-score of 0.0451.

Sample 5 — method: RNA Bind-n-Seq; molecule type: RNA; matrix: in vitro; tested at: 200 nM; notes: whole 134-nt RNA, ends assumed; together with: 150 mM KCl; reference: input library; direction: higher = stronger binding
Target: Ras GTPase-activating protein-binding protein 1, full length (G3BP1, Homo sapiens, UniProt Q13283)
UniProt Q13283, sequence (whole entry, looked up): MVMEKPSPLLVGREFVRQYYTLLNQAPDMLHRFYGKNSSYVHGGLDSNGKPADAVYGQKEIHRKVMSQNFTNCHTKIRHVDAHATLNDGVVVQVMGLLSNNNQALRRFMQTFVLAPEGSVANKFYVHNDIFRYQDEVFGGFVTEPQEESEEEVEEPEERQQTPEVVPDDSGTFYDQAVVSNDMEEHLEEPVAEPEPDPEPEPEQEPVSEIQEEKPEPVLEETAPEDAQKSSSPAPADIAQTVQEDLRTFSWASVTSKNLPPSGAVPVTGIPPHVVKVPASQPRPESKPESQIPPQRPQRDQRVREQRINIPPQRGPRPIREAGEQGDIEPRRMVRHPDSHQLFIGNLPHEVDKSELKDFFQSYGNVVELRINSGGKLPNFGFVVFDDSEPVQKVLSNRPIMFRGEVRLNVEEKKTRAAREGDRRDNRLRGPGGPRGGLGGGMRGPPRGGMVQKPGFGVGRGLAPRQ
The log2 enrichment of `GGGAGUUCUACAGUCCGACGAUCUGGCCCUGGUGGCAUGCGGGGAGGAAGAGGUGGCCUCAUGGAUCGUGGUGGUCCCGGUGGGAUGUUCAGAGGUGGCCGUGGUGGAGACAGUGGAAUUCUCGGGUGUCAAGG` is reported as 0.278.
For `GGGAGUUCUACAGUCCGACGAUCUGGGAGGUGGAUUUUGUUUAUUUUUUUAGCUCAUUUCCAGGGGUGGGAAUUAUUUUUUAAUAUGUGUCAUGAAUAAAGUUGUUUUUGAAAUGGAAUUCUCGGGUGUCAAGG`, the log2 enrichment was 0.276.
The log2 enrichment of `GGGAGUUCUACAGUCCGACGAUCAAGUCCUGUGCUACACAUCGUAUGUACCGAAUCGGGUUUGGGAGGGUUUUUUUGGGAAAGUAUUAUGUUACGCCGUUCGGAUCUGCACUUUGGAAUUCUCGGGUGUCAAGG` is reported as 0.0977.
The log2 enrichment of `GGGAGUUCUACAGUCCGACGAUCCUGUGCUACACAUCGUAUGUACCGAAUCGGGGAAAAAAAGGGGAAAAAGGGGUUUUUGGGGAAAGUAUUAUGUUACGCCGUUCGGAUCUGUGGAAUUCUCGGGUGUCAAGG` is reported as 0.0438.
`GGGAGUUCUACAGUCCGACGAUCCCUCAAGUCCUGUGCUACACAUCGUAUGUACCGAAUCGGGUGGGUGGGUGGGGAAAGUAUUAUGUUACGCCGUUCGGAUCUGCACUUCCAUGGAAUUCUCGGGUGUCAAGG` gave a log2 enrichment of 1.25.
For `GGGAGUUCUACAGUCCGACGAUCUCCUGUGCUACACAUCGUAUGUACCGAAUCGGGGCCCCCGGGCCCCCGGGGCCCCCGGGGAAAGUAUUAUGUUACGCCGUUCGGAUCUGCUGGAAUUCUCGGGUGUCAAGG`, the log2 enrichment was -0.717.
`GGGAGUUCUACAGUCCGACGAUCUGGCCCUGGUGGCAUGCGGGGAGGAAGAGGUGGCCUCAUGGAUCGUGGUGGUCCCGGUGGAAUGGUCAGAGGUGGCCGUGGUGGAGACAGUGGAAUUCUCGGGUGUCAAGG` has a log2 enrichment of 0.0839.
For `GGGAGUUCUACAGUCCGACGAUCGCAGGAAGUAAAAACAAAUGGAAAUGAUUCGGAUAGUGGCAGGGGUGGGGGUUGCUAAGGAAAGGGUGGGAUGGGAGUGGGUAAAGAGUUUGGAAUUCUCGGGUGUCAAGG`, the log2 enrichment was 1.33.

Further values, each from its own experiment — method: protein-binding microarray; molecule type: double-stranded DNA, one strand shown; matrix: in vitro; tested at: not given; direction: higher = stronger binding
Notes: k-mer, scored over probes, only values ≥0.25
FOXA2 forkhead domain: Hepatocyte nuclear factor 3-beta, forkhead domain (FOXA2, Homo sapiens, UniProt Q9Y261, residues 142-269)
UniProt Q9Y261, sequence (142-269, looked up): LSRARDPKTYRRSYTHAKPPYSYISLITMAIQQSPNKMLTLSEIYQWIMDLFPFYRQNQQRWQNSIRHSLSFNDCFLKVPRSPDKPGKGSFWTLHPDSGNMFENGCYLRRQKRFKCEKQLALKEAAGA
`TACAGAAA` gave an E-score of 0.282 (Transcriptional repressor CTCF (CTCF, Homo sapiens, UniProt P49711, residues 1-727, full length assumed)).
With `AGTTATA` the E-score was 0.411 (TATA-box-binding protein 1 (TBP1, Arabidopsis thaliana, UniProt P28147, residues 1-200, full length assumed)).
`GAACAATA` gave an E-score of 0.264 (FOXA2 forkhead domain).
For `ATGATATC`, the E-score was 0.296 (FOXA2 forkhead domain).

Excerpt of the above (sample 2):
The inhibition of `CCCCCCCCCCCCCCCC[N+](C)(C)Cc1ccccc1` is reported as 28.5%.
The inhibition of `C=C(CC)C(=O)c1ccc(OCC(=O)O)c(Cl)c1Cl` is reported as -8.3%.
`Nc1c[n+](N2CCOCC2)no1` has an inhibition of 60.4%.
